Results of several laboratories.
Protocols differ between the studies behind these lines. “And” joins repeats or separate records; there may be more than shown.
Target: 5-hydroxytryptamine receptor 2B (HTR2B, Homo sapiens, UniProt P41595)

| SMILES | test | system | setting | scale | endpoint | value |
| --- | --- | --- | --- | --- | --- | --- |
| CS(C)(=O)=Nc1ccc(-c2ccc(-c3nc4cc(O[C@@H]5CO[C@H]6[C@@H]5OC[C@H]6O)[nH]c4cc3F)cc2)cc1 | calcium signal, antagonist | – | 10 µM | – | inhibition | 43% |
| CCOC(=O)[C@](CC)(CCCSCCOCCOCCNC(=O)c1ccc(-c2c3ccc(=N)c(S(=O)(=O)O)c-3oc3c(S(=O)(=O)O)c(N)ccc23)c(C(=O)O)c1)NC(=O)c1ccc(C2CC2)c(Cc2ccc(F)cc2)n1 | ligand displacement, radioligand | – | 10 µM | – | inhibition | 2% |
| CN[C@@H]1[C@H](O)[C@H](NC)[C@H]2O[C@]3(O)[C@H](O[C@@H]2[C@H]1O)O[C@H](C)C[C@H]3NC(=O)Cc1ccc(Cl)cn1 | ligand displacement, radioligand | – | 10 µM | – | inhibition | 11% |
| O[C@H]1[C@H](n2cnc3c(N[C@@H](C4CCC4)C4CC4)nc(I)nc32)[C@H]2C[C@@]2(C(F)F)[C@H]1O | antagonist, calcium flux | – | together with: 5-HT | baseline: 5-HT2C over 5-HT2B | selectivity ratio | 724 fold |
| Cc1cc(Nc2nc(C[C@@]3(C(=O)O)CCN(Cc4cccc(Cl)c4F)[C@H](C)C3)cc(C)c2F)[nH]n1 | agonist | – | 10 µM | – | activation | -0.81% |
| Cc1cc(-c2ccc3ccccc3c2)nnc1NCCN1CCN(C)CC1 | antagonist | – | 10000 nM | baseline: control | activity | 2% |
| O=C(O)c1ccc(-c2nc(-c3ccccc3Cl)c3sccn23)cc1 | radioligand binding, safety screen panel | – | 10 µM | baseline: control | specific binding | 93.3% and 93.4% |
| COc1ccccc1N1CCN(CCCCN2CCCc3ccccc3C2=O)CC1 | radioligand binding | – | concentration not given, together with: [3H]LSD | – | inhibition | 85.2% |
| Cc1sc2c(c1C)C(c1ccc(Cl)cc1)=NC(CC(=O)OC(C)(C)C)c1nnc(C)n1-2 (centres unmarked) | ligand displacement, radioligand | – | 1 µM | – | inhibition | -1% |
| CCN(CC)CCOc1ccc(-c2nnn(Cc3ccc(OC)cc3)c2N)cc1 | radioligand binding | CHO-K1 | 10 µM, safety profiling | – | inhibition | 19.8% |
| N[C@H](C(=O)N1CCCC1)C1CCN(c2nccc3c(-c4ncc(Cl)cc4Cl)cccc23)CC1 | functional response, agonist | – | 10 µM | – | response | 4% |
| CCc1nnc(-c2c(OC)cc(-c3cnc4cc(-c5cnn(C)c5)ccn34)cc2OC)o1 | agonist radioligand, radioligand binding | – | 10 µM, SafetyScreen44 5-HT2B | – | inhibition | 11% |
| O=C1c2ccccc2CCCN1CCCCN1CCN(c2cccc(Cl)c2Cl)CC1 | radioligand binding | – | concentration not given, together with: [3H]LSD | – | inhibition | 85.3% |
| COc1ccc(F)cc1S(=O)(=O)Nc1cnc2c(c1)C(=O)NCCO2 | ligand displacement, radioligand | – | 10 µM | – | inhibition | 14% |

For quick reference, copied from above:
| SMILES | test | system | setting | scale | endpoint | value |
| --- | --- | --- | --- | --- | --- | --- |
| CCN(CC)CCOc1ccc(-c2nnn(Cc3ccc(OC)cc3)c2N)cc1 | radioligand binding | CHO-K1 | 10 µM, safety profiling | – | inhibition | 19.8% |
